Measurements from different studies.
Each line is one published result; not all experiments were run side by side. Several values in a cell are separate wells, animals, samples, runs or records. ± gives the spread as reported. Values after ≈ are worked out from the molar mass of the structure shown.

| SMILES | target or system | assay | system | conditions | how to read | endpoint | result |
| --- | --- | --- | --- | --- | --- | --- | --- |
| O=C1NC(=O)C(C2C3=C(CCCC3=O)Oc3ccc([N+](=O)[O-])cc32)C(=O)N1 (stereo not shown) | 3T3-L1 mature adipocytes | lipolysis, Oil Red O staining |  | IC20 |  | mean lipid content | 0.689 OD492 |
| CCOC(=O)N1CCC(=C2c3ccc(Cl)cc3CCc3cccnc32)CC1 | Plasmodium falciparum |  | W2 |  |  | IC50 | 5010 nM |
| Nc1ccn(C[C@@H](CO)OCP(=O)(O)O)c(=O)n1 | Fowlpox virus | viral infection | CEF | 25 µM | baseline: untreated | infection | 90.8% and 76% and 93.8% |
| c1ccc(C(NCCNC(c2ccccc2)c2ccccc2)c2ccccc2)cc1 | adrenergic alpha1 receptor, rat | binding |  | 10 µM, Eurofins selectivity panel |  | inhibition | 89% |
| COc1cc(CCC[P+](c2ccccc2)(c2ccccc2)c2ccccc2)c(OC)c2c1OCO2.[I-] | NCI-H226 | SRB |  |  |  | TGI | -4.67 log M |
| C[C@@H](O)[C@@H]1NC(=O)[C@@H](CCCCN)NC(=O)[C@H](CCCN)NC(=O)[C@@H](CCCN)NC(=O)[C@H](CO)NC(=O)[C@H](Cc2c[nH]c3ccccc23)NC(=O)[C@@H](Cc2c[nH]c3ccccc23)NC1=O | Acanthamoeba castellanii |  |  | trophozoites |  | IC90 | > 16 µg/mL |
| CS(=O)(=O)Nc1ncn(-c2cc(F)c(COc3ccc(OS(=O)(=O)F)cc3)c(F)c2)n1 | Mycobacterium tuberculosis | MABA | H37Rv |  |  | MIC | 0.042 µM (≈ 0.0201 µg/mL) |
| C[C@H]1O[C@@H](O[C@H]2CC[C@@]3(C)[C@@H](CC[C@]4(C)[C@@H]3C=C[C@]35OC[C@@]6(CCC(C)(C)C[C@H]63)[C@@H](O)C[C@]54C)[C@]2(C)CO)[C@H](O)[C@@H](O[C@@H]2O[C@H](CO)[C@@H](O)[C@H](O)[C@H]2O)[C@H]1O |  | item: PPAR-α | chronic-plus-binge ethanol-fed mice, AAV8-TBG-Null, liver | dose not given, high dose, unit not given | baseline: AAV8-TBG-Null ethanol group | mRNA level | 2.04 and 3.14 and 2.14 and 3.31 |
| CN(C)S(=O)(=O)c1ccc(Sc2ccccc2)c(C(=O)N2CCCC(C(N)=O)C2)c1 (stereo not shown) | Plasmodium falciparum | parasite growth, SYBR Green | 3D7 wild type | 72 h |  | EC50 | 134 ± 32 nM |
| CCN(CC)CCOCCOC(=O)C1(c2ccccc2)CCCC1 | Plasmodium falciparum |  | GB4 |  |  | IC50 | 631 nM |
| C#CCN(C)[C@H](C)Cc1ccccc1 |  | footprint test | MPTP-induced Parkinson's disease mouse model | 10 mg/kg, mean of three trials |  | corridor crossing time | 5.93 s and 4.8 s and 3.59 s and 5.73 s and 5.85 s and 5.58 s and 5.04 s |
| CC[C@H](C)[C@@H]1NC(=O)[C@@H]2CCCN2C(=O)[C@H](CC(C)C)NC(=O)[C@H](CC(C)C)NC(=O)CNC(=O)[C@@H](NC(=O)[C@@H](NC(=O)[C@H](CC(=O)O)NC(=O)CNC(=O)[C@@H](NC(=O)[C@H](C)NC(=O)CNC(=O)[C@H](CCCCN)NC(=O)[C@H](CC(C)C)NC(=O)[C@H](CC(C)C)NC(=O)[C@H](CCCCN)NC(=O)CNC(=O)[C@@H](NC(=O)[C@@H](N)CC(C)C)C(C)C)C(C)C)C(C)C)CSSC[C@@H](C(=O)O)NC1=O |  | RNA-seq, item: Themis mRNA | mouse traumatic brain injury, frontal cortex and hippocampus | dose not given | baseline: TBI plus compound vs TBI | log2 fold change | -3.76 |
| O=C(Nc1cccc(CN2CCN(C(=O)c3cccc(Cl)c3)CC2)c1)c1cccs1.O=C(O)C(F)(F)F | Plasmodium falciparum | parasite growth, SYBR Green |  | 72 h | baseline: 3D7-E182D over 3D7 | EC50 ratio | 4.7 |
| CC[C@H](C)[C@H](NC(=O)[C@H](C)NC(=O)[C@H](CCCCN)NC(=O)[C@H](CC(C)C)NC(=O)[C@H](C)NC(=O)[C@@H](NC(=O)[C@H](Cc1c[nH]cn1)NC(=O)[C@H](CC(C)C)NC(=O)[C@@H](NC(=O)[C@@H](NC(=O)[C@H](CCCCN)NC(=O)[C@H](C)NC(=O)[C@H](C)NC(=O)[C@H](CO)NC(=O)[C@H](CCCCN)NC(=O)[C@H](Cc1ccccc1)NC(=O)[C@@H](NC(=O)[C@H](CCCCN)NC(=O)[C@H](CC(C)C)NC(=O)[C@H](Cc1ccccc1)NC(=O)[C@H](CO)NC(=O)[C@H](CCCCN)NC(=O)[C@H](Cc1c[nH]c2ccccc12)NC(=O)[C@H](CCCCN)NC(C)=O)[C@@H](C)O)[C@@H](C)O)C(C)C)[C@@H](C)O)C(=O)N[C@@H](CO)C(=O)N[C@@H](CO)C(N)=O | Streptococcus pyogenes |  | ATCC 19615 | 1 strain |  | MBC50 | 16 µg/mL (≈ 5.45 µM) |
| NCCCC[C@@H]1NC(=O)[C@@H](CCCCN)NC(=O)[C@H](CO)NC(=O)[C@H](Cc2c[nH]c3ccccc23)NC(=O)[C@@H](Cc2c[nH]c3ccccc23)NC(=O)[C@H](Cc2ccccc2)NC(=O)[C@@H](CCCCN)NC1=O | Acanthamoeba castellanii |  |  | trophozoites |  | IC50 | > 16 µg/mL |
| CCc1cccc(N(C)C(=N)Nc2cccc3ccccc23)c1 | Plasmodium falciparum |  | GB4 |  |  | IC50 | 12600 nM |
| COc1c(C)c2c(c(O)c1C/C=C(\C)CCC(=O)O)C(=O)OC2 | RD | cell proliferation | muscle cancer |  |  | IC50 | 4070 nM |

| SMILES | target or system | assay | system | conditions | how to read | endpoint | result |
| --- | --- | --- | --- | --- | --- | --- | --- |
| COC(=O)[C@H]1[C@H]2C[C@@H]3c4[nH]c5cc(OC)ccc5c4CCN3C[C@H]2C[C@@H](OC(=O)c2cc(OC)c(OC)c(OC)c2)[C@@H]1OC | Plasmodium falciparum |  | GB4 |  |  | IC50 | 2000 nM |
| CCCCC1(CCCC)CN(c2ccccc2)c2cc(SC)c(OCC(=O)N[C@@H](C(=O)NCC(=O)O)c3ccccc3)cc2S(=O)(=O)C1 |  | item: HDL cholesterol | human, serum | 15 mg once daily, day 5 |  | serum HDL-C | 42 mg/dL |
| CC(C)[C@@H]1NC(=O)[C@@H](Cc2ccccc2)NC(=O)[C@H](CCCNC(=N)N)NC(=O)[C@@H]([C@H](C)O)NC(=O)[C@H](CC(N)=O)NC(=O)[C@@H](C(C)C)NC1=O | Acanthamoeba castellanii |  |  | trophozoites |  | IC90 | > 16 µg/mL |
| OC(c1cc(C(F)(F)F)nc2c(C(F)(F)F)cccc12)C1CCCCN1 (stereo not shown) | Plasmodium falciparum |  | GB4 |  |  | IC50 | 7 nM |
| CC(C)[C@H]1NC(=O)[C@H](CCCNC(=N)N)NC(=O)CNC(=O)[C@@H](Cc2c[nH]c3ccccc23)NC(=O)[C@H](CCCCN)NC(=O)[C@@H](CCCN)NC1=O | Acanthamoeba castellanii |  |  | trophozoites |  | IC50 | 10.5 µg/mL |
| CCN(CC)CC#Cc1ccc2[nH]c(C)c(Cl)c(=O)c2c1 | Plasmodium falciparum | parasite growth, SYBR Green | 3D7 DHODH E182D | 72 h |  | EC50 | 1250 ± 170 nM |
| O=C(NC1CCCCCCC1)c1cc(-c2ccc(Cl)cc2)c[nH]1 | Vero |  |  | 48 h |  | IC50 | > 64 µg/mL |
| O=C(CCCN1CC=C(n2c(=O)[nH]c3ccccc32)CC1)c1ccc(F)cc1 | Plasmodium falciparum |  | 7G8 |  |  | IC50 | 5010 nM |
| COc1ccc(-n2ccnc2SCC(=O)Nc2cc(C(F)(F)F)ccc2Cl)c(OC)c1 | Plasmodium falciparum | parasite growth, SYBR Green | 3D7 DHODH E182D | 72 h |  | EC50 | 274 ± 73 nM |
| Nc1ncnc2c1ncn2[C@@H]1O[C@@H]2COP(=O)(O)O[C@H]3[C@@H](O)[C@H](n4cnc5c(=O)[nH]cnc54)O[C@@H]3COP(=O)(O)O[C@H]2[C@H]1O | HFF-1 | RNA sequencing Reactome analysis, item: Reactome R-HSA-3781865 diseases of glycosylation |  | together with: West Nile virus infection | baseline: West Nile virus infected cells, downregulated pathway | pathway fold enrichment | 3.55 |
| CC(=O)O.CCc1cc2c(cc1CC)CC(NC[C@@H](O)c1ccc(O)c3[nH]c(=O)ccc13)C2 | Plasmodium falciparum | parasite growth, SYBR Green |  | 72 h | baseline: 3D7-E182D over 3D7 | EC50 ratio | 1.3 |
| C=C1CC[C@@]2(O)[C@H]3Cc4ccc(O)c5c4[C@@]2(CCN3CC2CC2)[C@H]1O5 | H+/organic cation antiporter | cell uptake | hCMEC/D3 |  |  | Km | 80.9 µM |
| Cc1cc(NC(=O)c2cc(S(=O)(=O)N3CCCCC3)ccc2C)no1 | Plasmodium falciparum | parasite growth, SYBR Green | 3D7 DHODH E182D | 72 h |  | EC50 | 2880 ± 310 nM |
| CCN(CC)[C@@H]1CCc2c(F)ccc(O)c2C1 | Plasmodium falciparum |  | W2 |  |  | IC50 | 631 nM |
| COc1c(CCC[P+](c2ccccc2)(c2ccccc2)c2ccccc2)cc2c(c1OC)OCO2.[I-] | IGROV-1 | SRB |  |  |  | TGI | -4.97 log M |
| O=C(NC12CC3CC(CC(C3)C1)C2)c1cc(-c2ccncc2F)c[nH]1 | Vero |  |  | 48 h |  | IC50 | > 64 µg/mL |
| CN(C)CCCN1c2ccccc2Sc2ccccc21 | Plasmodium falciparum |  | GB4 |  |  | IC50 | 7940 nM |

Some of these lines once more:
| SMILES | target or system | assay | system | conditions | how to read | endpoint | result |
| --- | --- | --- | --- | --- | --- | --- | --- |
| COC(=O)[C@H]1[C@H]2C[C@@H]3c4[nH]c5cc(OC)ccc5c4CCN3C[C@H]2C[C@@H](OC(=O)c2cc(OC)c(OC)c(OC)c2)[C@@H]1OC | Plasmodium falciparum |  | GB4 |  |  | IC50 | 2000 nM |
| CCCCC1(CCCC)CN(c2ccccc2)c2cc(SC)c(OCC(=O)N[C@@H](C(=O)NCC(=O)O)c3ccccc3)cc2S(=O)(=O)C1 |  | item: HDL cholesterol | human, serum | 15 mg once daily, day 5 |  | serum HDL-C | 42 mg/dL |
| CC(C)[C@@H]1NC(=O)[C@@H](Cc2ccccc2)NC(=O)[C@H](CCCNC(=N)N)NC(=O)[C@@H]([C@H](C)O)NC(=O)[C@H](CC(N)=O)NC(=O)[C@@H](C(C)C)NC1=O | Acanthamoeba castellanii |  |  | trophozoites |  | IC90 | > 16 µg/mL |
| OC(c1cc(C(F)(F)F)nc2c(C(F)(F)F)cccc12)C1CCCCN1 (stereo not shown) | Plasmodium falciparum |  | GB4 |  |  | IC50 | 7 nM |
| CC(C)[C@H]1NC(=O)[C@H](CCCNC(=N)N)NC(=O)CNC(=O)[C@@H](Cc2c[nH]c3ccccc23)NC(=O)[C@H](CCCCN)NC(=O)[C@@H](CCCN)NC1=O | Acanthamoeba castellanii |  |  | trophozoites |  | IC50 | 10.5 µg/mL |
